# Results of several laboratories.
# Compare with care: the assays were run in different laboratories. ± marks the error that the study gave.
# MDH2: Malate dehydrogenase, mitochondrial (MDH2, Sus scrofa, UniProt P00346)
# UniProt P00346, sequence (whole entry, looked up): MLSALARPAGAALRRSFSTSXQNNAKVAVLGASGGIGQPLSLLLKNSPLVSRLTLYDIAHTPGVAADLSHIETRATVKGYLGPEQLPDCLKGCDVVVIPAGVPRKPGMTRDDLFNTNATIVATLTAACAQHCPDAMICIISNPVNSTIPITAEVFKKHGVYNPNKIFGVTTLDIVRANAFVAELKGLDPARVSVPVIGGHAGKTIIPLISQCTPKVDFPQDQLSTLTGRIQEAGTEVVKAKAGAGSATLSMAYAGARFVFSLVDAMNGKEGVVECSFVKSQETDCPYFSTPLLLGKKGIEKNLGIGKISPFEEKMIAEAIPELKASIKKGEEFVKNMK
# Gria2/Glutamate receptor 3: Gria2/Glutamate receptor 3 (Rattus norvegicus, UniProt P19491+P19492)
# UniProt P19492, sequence (whole entry, looked up): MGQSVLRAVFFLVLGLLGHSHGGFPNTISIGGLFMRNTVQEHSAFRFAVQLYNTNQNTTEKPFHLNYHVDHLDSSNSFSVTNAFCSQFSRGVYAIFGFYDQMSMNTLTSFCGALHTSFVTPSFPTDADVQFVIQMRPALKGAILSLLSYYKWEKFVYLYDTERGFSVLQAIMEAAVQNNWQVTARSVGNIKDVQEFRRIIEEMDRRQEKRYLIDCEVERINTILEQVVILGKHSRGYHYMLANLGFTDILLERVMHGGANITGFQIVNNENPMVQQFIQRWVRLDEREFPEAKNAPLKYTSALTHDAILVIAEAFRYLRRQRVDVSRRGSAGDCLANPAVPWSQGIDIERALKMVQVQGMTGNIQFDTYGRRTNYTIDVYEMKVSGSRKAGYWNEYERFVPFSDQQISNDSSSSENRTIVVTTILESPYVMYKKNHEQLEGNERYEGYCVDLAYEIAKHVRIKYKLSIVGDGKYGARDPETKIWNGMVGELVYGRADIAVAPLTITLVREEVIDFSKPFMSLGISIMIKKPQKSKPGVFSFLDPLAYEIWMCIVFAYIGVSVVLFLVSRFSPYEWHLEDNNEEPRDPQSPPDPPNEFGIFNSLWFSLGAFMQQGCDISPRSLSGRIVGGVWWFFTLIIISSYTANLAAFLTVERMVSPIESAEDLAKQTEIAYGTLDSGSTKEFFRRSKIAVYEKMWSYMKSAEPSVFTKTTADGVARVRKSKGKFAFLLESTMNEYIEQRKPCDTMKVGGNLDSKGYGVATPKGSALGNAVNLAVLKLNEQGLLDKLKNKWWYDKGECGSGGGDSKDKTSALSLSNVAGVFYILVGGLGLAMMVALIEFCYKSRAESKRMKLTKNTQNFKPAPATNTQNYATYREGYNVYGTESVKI
# UniProt P19491, sequence (whole entry, looked up): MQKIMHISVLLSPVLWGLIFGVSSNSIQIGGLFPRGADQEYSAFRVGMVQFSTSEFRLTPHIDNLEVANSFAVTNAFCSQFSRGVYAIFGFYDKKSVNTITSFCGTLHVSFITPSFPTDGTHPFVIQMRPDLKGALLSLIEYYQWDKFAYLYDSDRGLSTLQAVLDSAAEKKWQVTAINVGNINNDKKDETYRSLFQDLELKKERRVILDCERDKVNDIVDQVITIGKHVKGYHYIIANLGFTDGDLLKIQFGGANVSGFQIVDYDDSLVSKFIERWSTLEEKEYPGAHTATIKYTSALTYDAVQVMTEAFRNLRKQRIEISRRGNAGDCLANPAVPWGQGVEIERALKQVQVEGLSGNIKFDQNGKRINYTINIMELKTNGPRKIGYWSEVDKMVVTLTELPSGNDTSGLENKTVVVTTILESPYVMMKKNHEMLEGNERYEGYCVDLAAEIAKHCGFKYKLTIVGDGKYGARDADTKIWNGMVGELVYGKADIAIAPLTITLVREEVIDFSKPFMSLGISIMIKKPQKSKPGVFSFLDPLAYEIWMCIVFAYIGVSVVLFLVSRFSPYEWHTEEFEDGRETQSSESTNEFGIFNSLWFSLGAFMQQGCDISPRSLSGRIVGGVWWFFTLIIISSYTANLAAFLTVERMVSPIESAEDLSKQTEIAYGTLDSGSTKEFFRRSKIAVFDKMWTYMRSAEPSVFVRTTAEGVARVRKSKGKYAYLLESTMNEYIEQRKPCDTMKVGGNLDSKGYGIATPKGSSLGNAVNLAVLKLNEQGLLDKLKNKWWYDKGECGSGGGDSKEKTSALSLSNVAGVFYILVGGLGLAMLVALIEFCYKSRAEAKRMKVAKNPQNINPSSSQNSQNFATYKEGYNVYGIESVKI
# IDO1: Indoleamine 2,3-dioxygenase 1 (IDO1, Homo sapiens, UniProt P14902)
# UniProt P14902, sequence (whole entry, looked up): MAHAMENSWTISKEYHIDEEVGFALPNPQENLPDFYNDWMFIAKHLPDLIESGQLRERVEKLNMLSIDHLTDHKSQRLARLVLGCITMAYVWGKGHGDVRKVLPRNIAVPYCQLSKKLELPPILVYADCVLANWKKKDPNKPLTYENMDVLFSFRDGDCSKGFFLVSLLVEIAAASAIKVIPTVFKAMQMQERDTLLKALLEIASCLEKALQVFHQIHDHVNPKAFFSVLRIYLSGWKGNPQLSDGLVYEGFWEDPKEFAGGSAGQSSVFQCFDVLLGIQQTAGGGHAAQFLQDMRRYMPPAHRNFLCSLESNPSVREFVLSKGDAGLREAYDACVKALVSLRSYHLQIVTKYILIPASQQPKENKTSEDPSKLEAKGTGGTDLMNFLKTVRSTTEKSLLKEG
# HDAC7: Histone deacetylase 7 (HDAC7, Homo sapiens, UniProt Q8WUI4)
# UniProt Q8WUI4, sequence (whole entry, looked up): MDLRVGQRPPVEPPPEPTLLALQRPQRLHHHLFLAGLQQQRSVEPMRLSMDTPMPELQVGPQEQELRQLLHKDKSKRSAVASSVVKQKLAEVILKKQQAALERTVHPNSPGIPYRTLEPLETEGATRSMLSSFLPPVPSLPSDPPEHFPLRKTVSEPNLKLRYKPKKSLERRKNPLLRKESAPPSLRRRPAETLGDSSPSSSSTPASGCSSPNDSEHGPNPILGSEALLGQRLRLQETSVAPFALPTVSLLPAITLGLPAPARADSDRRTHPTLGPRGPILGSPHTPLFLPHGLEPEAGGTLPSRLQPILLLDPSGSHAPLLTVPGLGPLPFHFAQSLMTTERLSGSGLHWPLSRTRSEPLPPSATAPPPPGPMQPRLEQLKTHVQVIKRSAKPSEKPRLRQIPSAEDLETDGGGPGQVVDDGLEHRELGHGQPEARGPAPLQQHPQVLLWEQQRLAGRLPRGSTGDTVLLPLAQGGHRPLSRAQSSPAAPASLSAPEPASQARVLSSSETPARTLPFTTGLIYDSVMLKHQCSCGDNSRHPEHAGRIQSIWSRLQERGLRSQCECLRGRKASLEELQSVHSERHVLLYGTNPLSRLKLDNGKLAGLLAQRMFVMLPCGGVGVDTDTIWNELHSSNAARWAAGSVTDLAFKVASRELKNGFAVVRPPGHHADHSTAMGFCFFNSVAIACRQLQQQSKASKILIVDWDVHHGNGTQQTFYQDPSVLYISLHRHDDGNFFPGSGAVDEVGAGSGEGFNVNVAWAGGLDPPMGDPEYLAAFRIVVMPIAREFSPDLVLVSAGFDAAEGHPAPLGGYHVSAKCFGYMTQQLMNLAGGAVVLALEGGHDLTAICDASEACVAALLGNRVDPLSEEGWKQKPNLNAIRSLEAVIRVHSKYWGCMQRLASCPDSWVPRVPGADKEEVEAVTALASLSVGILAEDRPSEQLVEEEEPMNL
# PDE9A: High affinity cGMP-specific 3',5'-cyclic phosphodiesterase 9A (PDE9A, Homo sapiens, UniProt O76083)
# UniProt O76083, sequence (whole entry, looked up): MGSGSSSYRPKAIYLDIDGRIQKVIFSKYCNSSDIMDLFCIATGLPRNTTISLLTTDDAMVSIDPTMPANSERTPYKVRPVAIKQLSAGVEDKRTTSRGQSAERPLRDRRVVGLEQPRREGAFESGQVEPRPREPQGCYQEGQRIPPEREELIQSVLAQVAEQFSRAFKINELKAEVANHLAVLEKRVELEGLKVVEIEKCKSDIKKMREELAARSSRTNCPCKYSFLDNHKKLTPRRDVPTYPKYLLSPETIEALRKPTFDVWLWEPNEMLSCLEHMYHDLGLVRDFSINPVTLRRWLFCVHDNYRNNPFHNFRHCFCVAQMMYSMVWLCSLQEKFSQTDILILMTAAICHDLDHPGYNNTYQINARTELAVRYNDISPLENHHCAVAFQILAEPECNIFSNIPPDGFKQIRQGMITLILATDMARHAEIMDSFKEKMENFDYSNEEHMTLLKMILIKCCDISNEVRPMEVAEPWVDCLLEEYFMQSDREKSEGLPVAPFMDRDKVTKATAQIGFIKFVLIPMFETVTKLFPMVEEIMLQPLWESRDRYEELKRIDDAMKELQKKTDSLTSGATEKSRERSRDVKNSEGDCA
# UniProt B2RXH2, sequence (whole entry, looked up): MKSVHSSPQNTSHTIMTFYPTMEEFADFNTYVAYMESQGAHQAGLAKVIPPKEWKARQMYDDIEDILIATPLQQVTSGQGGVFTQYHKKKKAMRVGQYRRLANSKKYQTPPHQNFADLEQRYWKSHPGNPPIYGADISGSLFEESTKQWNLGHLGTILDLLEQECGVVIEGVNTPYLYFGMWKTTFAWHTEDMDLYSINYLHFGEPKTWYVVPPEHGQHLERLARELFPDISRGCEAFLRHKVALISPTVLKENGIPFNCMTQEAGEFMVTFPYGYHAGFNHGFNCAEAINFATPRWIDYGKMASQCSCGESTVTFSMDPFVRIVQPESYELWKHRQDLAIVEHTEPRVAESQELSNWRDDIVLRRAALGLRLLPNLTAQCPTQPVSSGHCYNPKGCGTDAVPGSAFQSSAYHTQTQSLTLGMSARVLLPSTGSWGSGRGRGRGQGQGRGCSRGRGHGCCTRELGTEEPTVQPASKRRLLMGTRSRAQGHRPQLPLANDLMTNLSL
# UniProt P35346, sequence (whole entry, unmodified, looked up): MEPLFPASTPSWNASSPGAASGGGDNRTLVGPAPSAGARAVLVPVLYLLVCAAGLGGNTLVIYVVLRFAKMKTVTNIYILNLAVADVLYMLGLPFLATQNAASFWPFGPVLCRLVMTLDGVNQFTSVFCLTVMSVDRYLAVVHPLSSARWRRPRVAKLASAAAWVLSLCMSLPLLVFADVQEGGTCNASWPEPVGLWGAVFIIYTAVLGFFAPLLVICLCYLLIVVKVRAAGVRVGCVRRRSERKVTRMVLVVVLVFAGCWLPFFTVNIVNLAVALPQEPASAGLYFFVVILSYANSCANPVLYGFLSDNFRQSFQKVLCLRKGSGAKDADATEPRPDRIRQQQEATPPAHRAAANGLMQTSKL
SMILES,target,assay,system,setting,IC50
C#CCCn1nc(C)c2c(Cl)c(C(=O)NCC3CC(C)=NO3)cnc21 (stereo not drawn),MDH2,"enzyme activity, reporter counter-screen",,native enzyme,> 63 µM
CCOc1cc(CN2CC3(CC(N4CCC(C(=O)O)CC4)=NO3)C2)cc(OCC)c1-c1ccc(F)cc1,"SSTR5 (Homo sapiens, UniProt P35346, Q123A)","cAMP level, antagonist, GloSensor",AD293,"Q123A mutant, bandwidth 3.36, added: CST17 EC80 and forskolin",5.75 µM
O=C(O)Cc1cc2c(cc1C(=O)c1cccc(Br)c1)OCO2,Gria2/Glutamate receptor 3,"ion current, patch clamp",,,4.58 µM
Cc1oc(C)c(-c2ccc(N(CC(C)C)CC(C)C)c(NC(=O)Nc3ccccc3)c2)c1C(=O)O,IDO1,"enzyme activity, inhibitor, recombinant enzyme, item: kynurenine",,"20 min, 2% DMSO, added: L-tryptophan",30 ± 4 µM
O=C(O)Cc1cc2c(cc1C(=O)c1ccc(Cl)cc1Cl)OCO2,Gria2/Glutamate receptor 3,"ion current, patch clamp",,,4.02 µM
Cc1oc(C)c(-c2ccc(N(CC(C)C)C3CCCCC3)c(NC(=O)Nc3ccc(B4OC(C)(C)C(C)(C)O4)cc3)c2)c1C(=O)O,IDO1,"enzyme activity, inhibitor, recombinant enzyme, item: kynurenine",,"20 min, 2% DMSO, added: L-tryptophan",17 ± 5 µM
CC(C)(C)NC(=O)CC(NC(=O)CCc1ccccc1)C(=O)NCCNC(=O)c1ccc(-c2ccccc2)cc1 (stereo not drawn),"Proteasome component C5/PSMB8 (Homo sapiens, UniProt P20618+P28062)","enzyme activity, inhibitor",,immunoproteasome β5i,> 100 µM
C=CCc1ccc(O)c(-c2ccc(O)c(CC=C)c2)c1,"CES1 (Homo sapiens, UniProt P23141)","enzyme activity, inhibitor",,,6.29 µM
Cc1ccc(Nc2cc(NC3CC3)n3ncc(C#N)c3n2)cc1NC(=O)C1CC1,"CSNK2A1 (Homo sapiens, UniProt P68400)",inhibitor,,,0.15 µM
COc1ccc(CNC(=O)c2cnc3c(c(C)nn3C)c2Cl)cc1,MDH2,"enzyme activity, reporter counter-screen",,native enzyme,> 63 µM
[N-]=[N+]=N[C@]1(COP(=O)(O)OP(=O)(O)OP(=O)(O)O)O[C@@H](n2ccc(N)nc2=O)[C@@H](F)[C@@H]1O,"POLG (Homo sapiens, UniProt P54098)","cell-free assay, inhibitor",,,> 1000 µM
COc1cccc(CNc2nc(NC3CCN(Cc4cccc(C(=O)O)c4)CC3)c3nc[nH]c3n2)c1,"IPMK (Homo sapiens, UniProt Q8NFU5)","enzyme activity, inhibitor",,,24 µM
CNC(=O)c1ccc(-c2cc(Cl)cc(Cl)c2Cl)c(N)n1,"SCN10A (Homo sapiens, UniProt Q9Y5Y9)","ion current, inhibitor, patch clamp",,,0.55 µM
CCc1ccc(/N=C2\C(=O)N(Cc3ccc([N+](=O)[O-])cc3)c3ccccc32)cc1,"PIK3CA (Homo sapiens, UniProt P42336)","enzyme activity, inhibitor, ADP detection",,,0.0197 µM
C[C@@H]1CN(c2cc(=O)n(C)c3ccc(C#N)nc23)[C@@H](C)CN1Cc1ccc(S(=O)(=O)n2cnc(C3CC3)n2)cc1,"DGKZ (Homo sapiens, UniProt Q13574)","inhibitor, ADP-Glo",,added: DAG micelles,1.44 µM
CCN(CC)CC(=O)Nc1cccc(-n2cc(-c3ccc4ccc(-c5cn(-c6cccc(NC(=O)CN(CC)CC)c6)nn5)cc4c3)nn2)c1,"RPS6KB1 (Homo sapiens, UniProt P23443)","enzyme activity, inhibitor",,,> 10 µM
Cc1nn(-c2cccc(N)c2)c(=O)c2cnc(Nc3ccc(N4CCNCC4)cc3)nc12,"PDGFRA (Homo sapiens, UniProt P16234, V561D)","enzyme activity, inhibitor",,,0.491 µM
C#CCCn1nc(C)c2c(Cl)c(C(=O)NCC3CC(Br)=NO3)cnc21 (stereo not drawn),"60 kDa heat shock protein, mitochondrial, with HSP10 (Homo sapiens, UniProt P10809)",HSP60/10-mediated MDH refolding,,"5 min, preincubation before ATP, added: denatured malate dehydrogenase",67 µM
Fc1ccc(Nc2nc(NC3CCCCC3)c3ccccc3n2)cc1F,"ADRB2 (Homo sapiens, UniProt P07550, C125V)","β-arrestin2 recruitment, antagonist, BRET",HEK293,"mutant C125V, added: isoprenaline 1 µM",1.58 µM
CC1CCC2C(C)C(OC(=O)CCC(=O)OCCOCCOC(=O)N3CCC(Nc4ccc(S(=O)(=O)NC(=O)c5ccc(N6CCN(CC7=C(c8ccc(Cl)cc8)CC(C)(C)CC7)CC6)cc5Oc5cnc6[nH]ccc6c5)cc4[N+](=O)[O-])CC3)OC3OC4(C)CCC1C32OO4 (stereo not drawn),"BCL2 (Homo sapiens, UniProt P10415)","ligand displacement, FP",,,0.812 µM
CCCCCCN(O)C(=O)CCCCC[C@@H]1NC(=O)[C@H]([C@@H](C)CC)NC(=O)[C@H](Cc2ccccc2C(F)(F)F)NC(=O)CCSCc2cccc(n2)CSCCCNC1=O,HDAC7,"enzyme activity, inhibitor, fluorogenic",,,> 30 µM
COC(=O)Cc1cc2c(cc1C(=O)c1ccccc1Br)OCO2,Gria2/Glutamate receptor 3,"ion current, antagonist, patch clamp",,,5.5 µM
CC(C)[C@@H](NC(=O)C(=O)O)C(=O)O,"KDM4E (Homo sapiens, UniProt B2RXH2)","enzyme activity, inhibitor",,,> 1000 µM
O=C1CCC(N2C(=O)c3ccc(N4CCC(C(=O)N5CCC(CCN6CCC(CNC(=O)c7cccc(-c8noc(C(F)(F)F)n8)c7)(c7nc(-c8ccccc8)cs7)CC6)CC5)CC4)cc3C2=O)C(=O)N1 (stereo not drawn),HDAC7,"enzyme activity, inhibitor",,,2.41 µM
CCCCCCCC/C=C\CCCCCCCC(=O)N[C@H](CCCCN)C(=O)O,"glycine transporter 2 (Xenopus tropicalis, UniProt A0A7D9NK84)",[3H]glycine uptake,HEK293F,,239 µM
COC(=O)Cc1cc2c(cc1C(=O)c1ccccc1)OCO2,Gria2/Glutamate receptor 3,"ion current, antagonist, patch clamp",,,6.17 µM
Nc1ncc(-c2cc(-c3cnn(CC(F)(F)F)c3)ncc2F)nc1C(=O)NC1CNCC(F)C1 (stereo not drawn),"MKNK1 (Homo sapiens, UniProt Q9BUB5)","enzyme activity, inhibitor, radiometric",,,0.348 µM
O=C(CCNC(=O)CNC(=O)CC(c1ccccc1)(c1ccccc1)c1ccccc1)NC[C@@H]1CCCN(Cc2ccc(F)cc2)C1,"CHRM1 (Homo sapiens, UniProt P11229)","ligand displacement, radioligand",,cell membranes,23.1 µM
O=C(O)Cc1cc2c(cc1C(=O)c1ccccc1Br)OCO2,Gria2/Glutamate receptor 3,"ion current, antagonist, patch clamp",,,4.57 µM
Cc1cc(C)c(S(=O)(=O)N(CC(=O)O)c2ccc(Nc3ccnc(N4CCCC4)n3)cc2)c(C)c1,"MAPK3 (Homo sapiens, UniProt P27361)","enzyme activity, inhibitor",,,> 100 µM
CC(C)(C)n1ncc2c(=O)n(Cc3cccc(F)c3)c(NCc3ccc(F)cn3)nc21,PDE9A,"enzyme activity, inhibitor",,,> 10 µM
COc1ccc2c(=O)oc3c(OC)cc(CC=O)c4c(=O)oc1c2c34,"TLR2 (Homo sapiens, UniProt O60603)","reporter gene, inhibitor, SEAP reporter",HEK-Blue hTLR2,"24 h, added: Pam3CSK4 100 ng/mL",39.5 ± 2.56 µM
Cc1ccc(-c2c3c([nH]c(=O)c2C#N)C(C(C)C)CCC3)cc1 (stereo not drawn),PDE9A,"enzyme activity, inhibitor, radiometric",,,0.16 µM

# For quick reference, copied from above:
SMILES,target,assay,system,setting,IC50
Cc1cc(C)c(S(=O)(=O)N(CC(=O)O)c2ccc(Nc3ccnc(N4CCCC4)n3)cc2)c(C)c1,"MAPK3 (Homo sapiens, UniProt P27361)","enzyme activity, inhibitor",,,> 100 µM
CC(C)(C)n1ncc2c(=O)n(Cc3cccc(F)c3)c(NCc3ccc(F)cn3)nc21,PDE9A,"enzyme activity, inhibitor",,,> 10 µM
COc1ccc2c(=O)oc3c(OC)cc(CC=O)c4c(=O)oc1c2c34,"TLR2 (Homo sapiens, UniProt O60603)","reporter gene, inhibitor, SEAP reporter",HEK-Blue hTLR2,"24 h, added: Pam3CSK4 100 ng/mL",39.5 ± 2.56 µM
